Assay results pooled from the literature.
Protocols differ between the studies behind these lines. ± gives the spread as reported.

For `N=C(N)NCCC[C@@H]1NC(=O)[C@H](CCCCNC(=O)CNC(=O)CNC(=O)CNC(=O)CC[C@H](NC(=O)CCOCCOCCOCCOCCNC(=O)c2ccc(NN)nc2)C(=O)NCC(=O)NCC(=O)NCC(=O)NCCCC[C@@H]2NC(=O)[C@@H](Cc3ccccc3)NC(=O)[C@H](CC(=O)O)NC(=O)CNC(=O)[C@H](CCCNC(=N)N)NC2=O)NC(=O)[C@@H](Cc2ccccc2)NC(=O)[C@H](CC(=O)O)NC(=O)CNC1=O` [technetium-99m labelled], the tissue uptake was 1.22 ± 0.02 %ID/g (γ-counting; female athymic nude mice, U-87 MG xenograft, eyes; intravenous, 2 h).
`COc1cccc2c1C(=O)c1c(O)c3c(c(O)c1C2=O)C[C@@](O)(C(=O)CO)C[C@@H]3O[C@H]1C[C@H](NC(=O)[C@H](CC(C)C)NC(=O)[C@H](C)NC(=O)[C@H](CC(C)C)NC(=O)CCNC(=O)CCC(=O)O)[C@H](O)[C@H](C)O1` gave a Cmax of 35.9 µM (mouse, E0771 tumour-bearing, heart; intravenous, 92 µmol/kg).
`Cc1ccccc1NC(=O)Nc1ccc(CC(=O)N[C@@H](CCCCNC(=O)/C=C/c2cccnc2)C(=O)N[C@@H](CCCC(=O)O)C(=O)NC2(C(=O)NCCOCCOCCNC(=O)CCC(=O)NCCOCCOCCNC(=O)CCC(=O)N[C@@H](CCCCNC(=O)CN3CCCN4CCN(CCCN(CC(=O)O)CC4)CC3)C(N)=O)CCCCC2)cc1` [copper-64 labelled] — result for “tumour to background ratio”: 4.2 ± 0.3 (PET/CT; C57BL/6 mice, B16-F10 tumour; intravenous, 2 h, with: LLP2A 100 µg blocking).
For `CC[C@H](C)[C@H](NC(=O)[C@H](CCC(N)=O)NC(=O)[C@@H](NC(=O)CNC(=O)[C@H](CSSCCCC(=O)O[C@]1(CC)C(=O)OCc2c1cc1n(c2=O)Cc2cc3ccccc3nc2-1)NC(C)=O)C(C)C)C(=O)N[C@H](C(=O)N[C@@H](Cc1ccc(O)cc1)C(=O)N[C@@H](CCCCN)C(=O)N[C@@H](CCCCN)C(N)=O)C(C)C`, “critical dissociation concentration” read ~207 nM (fluorescence quenching; nanostructures; 2 min).
`N=C(N)NCCC[C@@H]1NC(=O)[C@H](CCCCNC(=O)[C@H](CC(=O)O)NC(=O)[C@H](CC(=O)O)NC(=O)[C@H](CC(=O)O)NC(=O)CC[C@H](NC(=O)CCOCCOCCOCCOCCNC(=O)c2ccc(NN)nc2)C(=O)N[C@@H](CC(=O)O)C(=O)N[C@@H](CC(=O)O)C(=O)N[C@@H](CC(=O)O)C(=O)NCCCC[C@@H]2NC(=O)[C@@H](Cc3ccccc3)NC(=O)[C@H](CC(=O)O)NC(=O)CNC(=O)[C@H](CCCNC(=N)N)NC2=O)NC(=O)[C@@H](Cc2ccccc2)NC(=O)[C@H](CC(=O)O)NC(=O)CNC1=O` [technetium-99m labelled] gave a tissue uptake of 3.95 ± 0.11 %ID/g (γ-counting; female athymic nude mice, U-87 MG xenograft, liver; intravenous, 0.5 h).
`melittin` gave a partitioning enthalpy of -4.7 kcal/mol (isothermal titration calorimetry; POPC/POPG LUVs 90:10%; 100 µM, pH 7.0, 40 °C).
`CN[C@@](C)(C[18F])C(=O)O` gave a tracer uptake of 3.5 %ID/g (A549 tumour model; host not given, heart; 1 h, tumour-bearing).
`CSCC[C@H](NC(=O)[C@H](CC(C)C)NC(=O)[C@H](Cc1c[nH]cn1)NC(=O)CNC(=O)[C@@H](NC(=O)[C@H](C)NC(=O)[C@H](Cc1c[nH]c2ccccc12)NC(=O)[C@H](CCC(N)=O)NC(=O)CCC(=O)NCCOCCOCCNC(=O)CN1CCN(CC(=O)O)CCN(CC(=O)O)CCN(CC(=O)O)CC1)C(C)C)C(N)=O` gave an excretion of 82.2 ± 1.31% (CF-1 mouse, urine and bladder; intravenous, 185 kBq, 1 h).
The tissue uptake of `CC(C)C[C@@H]1NC(=O)[C@@H]2CSSC[C@@H](C(=O)NCC(N)=O)NC(=O)[C@H](Cc3ccccc3)NC(=O)CNC(=O)[C@H](CC(N)=O)NC(=O)[C@@H]3CCCN3C(=O)CNC(=O)[C@@H]3CSSC[C@H](NC(=O)[C@H]([C@@H](C)O)NC(=O)[C@H](CC(C)C)NC(=O)[C@@H]4CCCN4C(=O)[C@@H]4CCCN4C(=O)[C@H](CC(N)=O)NC(=O)[C@H](CC(=O)O)NC(=O)CNC(=O)[C@H](CCCNC(=N)N)NC(=O)[C@@H]4CCCN4C(=O)[C@H](CCCNC(=N)N)NC(=O)[C@@H]4CCCN4C(=O)[C@@H](NC(=O)CNC(=O)CN4CCN(CC(=O)O)CCN(CC(=O)O)CCN(CC(=O)O)CC4)CSSC[C@H](NC(=O)CNC(=O)[C@H](C)NC1=O)C(=O)N[C@@H](C(C)C)C(=O)N3)C(=O)N[C@@H](CO)C(=O)N[C@@H](CCC(N)=O)C(=O)N[C@@H](CC(=O)O)C(=O)N[C@@H](CO)C(=O)N[C@@H](CC(=O)O)C(=O)N2` [copper-64 labelled] is reported as 1.76 %ID/g (PET/CT; CCSP-rtTA TetO-MYC TetO-KrasG12D mouse, lung tumour; intravenous, 60 min).
The nanofiber diameter of `Nc1nc2[nH]cc(CCc3ccc(C(=O)N[C@@H](CCC(=O)N[C@@H](Cc4ccccc4)C(=O)N[C@@H](Cc4ccccc4)C(=O)N[C@@H](CCC(=O)O)C(=O)N[C@@H](CCC(=O)O)C(=O)O)C(=O)O)cc3)c2c(=O)[nH]1` is reported as 9.1 ± 1.4 nm (conventional TEM; 1× DPBS; 24 h, room temperature, aged, self-assembled).
For `COc1cccc2c1C(=O)c1c(O)c3c(c(O)c1C2=O)C[C@@](O)(C(=O)CO)C[C@@H]3O[C@H]1C[C@H](NC(=O)[C@@H]2CCCN2C(=O)CNC(=O)[C@H](CC(C)C)NC(=O)[C@H](C)NC(=O)CP(=O)(O)O)[C@H](O)[C@H](C)O1`, the Cmax was 25.2 µM (mouse, E0771 tumour-bearing, tumor; intravenous, 92 µmol/kg).
With `Cc1ccccc1NC(=O)Nc1ccc(CC(=O)N[C@@H](CCCCNC(=O)/C=C/c2cccnc2)C(=O)N[C@@H](CCCC(=O)O)C(=O)NC2(C(=O)NCCOCCOCCOCCOCCC(=O)N[C@@H](CCCCNC(=O)CN3CCN(CC(=O)O)CCN(CC(=O)O)CCN(CC(=O)O)CC3)C(N)=O)CCCCC2)cc1` [lutetium-177 labelled] the tissue uptake was ≤ 0.2 %ID/g (C57BL/6 mouse, tumour and VLA-4-positive tissues; intravenous, 24 h, with: LLP2A-PEG4 100 µg (1100-fold) blocking).
For `CCN1C(=CC=CC=CC2=[N+](CCCCCC(=O)NCCCC[C@H](NC(=O)CN3CCN(CC(=O)O)CCN(CC(=O)O)CCN(CC(=O)O)CC3)C(=O)NCC(=O)NCC(=O)N[C@@H](Cc3ccc(O)cc3)C(=O)NCC(=O)N[C@H]3CSSC[C@@H]4NC(=O)CNC(=O)[C@H](C)NC(=O)[C@H](CC(C)C)NC(=O)[C@@H]5CSSC[C@@H](C(=O)NCC(N)=O)NC(=O)[C@H](Cc6ccccc6)NC(=O)CNC(=O)[C@H](CC(N)=O)NC(=O)[C@@H]6CCCN6C(=O)CNC(=O)[C@H](CSSC[C@H](NC(=O)[C@H](CO)NC(=O)[C@H]([C@@H](C)O)NC(=O)[C@@H]6CCCN6C(=O)[C@H](C)NC(=O)[C@H](Cc6c[nH]c7ccccc67)NC(=O)[C@H](CC(=O)O)NC(=O)CNC(=O)[C@H](CCCNC(=N)N)NC(=O)CNC(=O)[C@H](CCC(N)=O)NC(=O)[C@@H]6CCCN6C3=O)C(=O)N[C@@H](CO)C(=O)N[C@@H](CCC(N)=O)C(=O)N[C@@H](CC(=O)O)C(=O)N[C@@H](CO)C(=O)N[C@@H](CC(=O)O)C(=O)N5)NC(=O)[C@H](C(C)C)NC4=O)c3ccc4c(S(=O)(=O)[O-])cc(S(=O)(=O)O)cc4c3C2(C)C)C(C)(C)c2c1ccc1c(S(=O)(=O)O)cc(S(=O)(=O)O)cc21` (single isomer, unassigned) [copper-64 labelled], the tissue uptake was ~30 %ID/g (nude mouse, kidney; intravenous, 100 µCi, 24 h).

Excerpt of the above:
`melittin` gave a partitioning enthalpy of -4.7 kcal/mol (isothermal titration calorimetry; POPC/POPG LUVs 90:10%; 100 µM, pH 7.0, 40 °C).
For `N=C(N)NCCC[C@@H]1NC(=O)[C@H](CCCCNC(=O)CNC(=O)CNC(=O)CNC(=O)CC[C@H](NC(=O)CCOCCOCCOCCOCCNC(=O)c2ccc(NN)nc2)C(=O)NCC(=O)NCC(=O)NCC(=O)NCCCC[C@@H]2NC(=O)[C@@H](Cc3ccccc3)NC(=O)[C@H](CC(=O)O)NC(=O)CNC(=O)[C@H](CCCNC(=N)N)NC2=O)NC(=O)[C@@H](Cc2ccccc2)NC(=O)[C@H](CC(=O)O)NC(=O)CNC1=O` [technetium-99m labelled], the tissue uptake was 1.22 ± 0.02 %ID/g (γ-counting; female athymic nude mice, U-87 MG xenograft, eyes; intravenous, 2 h).
